Measurements pooled from the literature.
Lines come from different studies, so protocols differ. ± marks the error that the study gave.
Chain of UniProt Q13043 (whole entry, looked up): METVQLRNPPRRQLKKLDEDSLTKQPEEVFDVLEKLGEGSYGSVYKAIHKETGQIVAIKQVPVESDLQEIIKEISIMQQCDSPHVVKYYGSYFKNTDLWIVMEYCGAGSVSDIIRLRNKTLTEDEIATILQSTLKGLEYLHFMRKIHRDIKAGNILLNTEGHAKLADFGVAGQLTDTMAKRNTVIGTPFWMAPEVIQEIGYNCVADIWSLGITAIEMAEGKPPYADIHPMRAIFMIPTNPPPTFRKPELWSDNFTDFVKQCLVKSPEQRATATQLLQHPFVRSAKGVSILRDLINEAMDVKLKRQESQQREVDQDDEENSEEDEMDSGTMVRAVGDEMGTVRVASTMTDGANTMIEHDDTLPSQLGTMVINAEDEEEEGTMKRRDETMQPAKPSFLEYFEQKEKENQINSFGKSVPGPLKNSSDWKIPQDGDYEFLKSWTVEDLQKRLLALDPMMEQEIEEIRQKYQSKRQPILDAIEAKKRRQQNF
Chain of UniProt P25911 (whole entry, looked up): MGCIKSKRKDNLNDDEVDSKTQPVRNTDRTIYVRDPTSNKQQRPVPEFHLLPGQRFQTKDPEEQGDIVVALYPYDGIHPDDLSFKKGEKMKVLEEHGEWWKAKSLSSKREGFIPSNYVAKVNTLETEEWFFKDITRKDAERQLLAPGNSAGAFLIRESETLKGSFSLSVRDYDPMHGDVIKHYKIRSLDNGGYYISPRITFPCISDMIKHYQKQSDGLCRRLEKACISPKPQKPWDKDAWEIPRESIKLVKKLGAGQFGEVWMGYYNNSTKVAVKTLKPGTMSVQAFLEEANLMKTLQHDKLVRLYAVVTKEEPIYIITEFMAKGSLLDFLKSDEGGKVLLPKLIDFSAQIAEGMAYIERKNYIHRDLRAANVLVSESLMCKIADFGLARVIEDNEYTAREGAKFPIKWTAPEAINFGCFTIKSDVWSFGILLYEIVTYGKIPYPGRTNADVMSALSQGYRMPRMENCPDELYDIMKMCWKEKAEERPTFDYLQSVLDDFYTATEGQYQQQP
Chain of UniProt Q9H093 (whole entry, looked up): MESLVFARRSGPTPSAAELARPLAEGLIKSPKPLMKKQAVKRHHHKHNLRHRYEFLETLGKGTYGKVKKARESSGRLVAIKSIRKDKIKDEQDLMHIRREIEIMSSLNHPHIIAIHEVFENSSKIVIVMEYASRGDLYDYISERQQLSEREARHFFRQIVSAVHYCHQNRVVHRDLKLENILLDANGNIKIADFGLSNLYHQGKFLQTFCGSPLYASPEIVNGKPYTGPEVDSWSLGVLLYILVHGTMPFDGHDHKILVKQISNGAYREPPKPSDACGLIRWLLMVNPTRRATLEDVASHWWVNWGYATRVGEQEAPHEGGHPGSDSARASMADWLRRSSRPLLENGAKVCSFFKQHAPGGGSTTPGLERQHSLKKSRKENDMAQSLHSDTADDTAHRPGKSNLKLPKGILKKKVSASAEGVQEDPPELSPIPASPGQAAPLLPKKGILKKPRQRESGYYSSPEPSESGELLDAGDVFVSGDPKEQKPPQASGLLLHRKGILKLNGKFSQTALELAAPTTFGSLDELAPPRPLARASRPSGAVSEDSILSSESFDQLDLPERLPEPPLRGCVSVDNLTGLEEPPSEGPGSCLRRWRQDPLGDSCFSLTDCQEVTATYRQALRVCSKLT
Chain of UniProt Q9H2K8 (whole entry, looked up): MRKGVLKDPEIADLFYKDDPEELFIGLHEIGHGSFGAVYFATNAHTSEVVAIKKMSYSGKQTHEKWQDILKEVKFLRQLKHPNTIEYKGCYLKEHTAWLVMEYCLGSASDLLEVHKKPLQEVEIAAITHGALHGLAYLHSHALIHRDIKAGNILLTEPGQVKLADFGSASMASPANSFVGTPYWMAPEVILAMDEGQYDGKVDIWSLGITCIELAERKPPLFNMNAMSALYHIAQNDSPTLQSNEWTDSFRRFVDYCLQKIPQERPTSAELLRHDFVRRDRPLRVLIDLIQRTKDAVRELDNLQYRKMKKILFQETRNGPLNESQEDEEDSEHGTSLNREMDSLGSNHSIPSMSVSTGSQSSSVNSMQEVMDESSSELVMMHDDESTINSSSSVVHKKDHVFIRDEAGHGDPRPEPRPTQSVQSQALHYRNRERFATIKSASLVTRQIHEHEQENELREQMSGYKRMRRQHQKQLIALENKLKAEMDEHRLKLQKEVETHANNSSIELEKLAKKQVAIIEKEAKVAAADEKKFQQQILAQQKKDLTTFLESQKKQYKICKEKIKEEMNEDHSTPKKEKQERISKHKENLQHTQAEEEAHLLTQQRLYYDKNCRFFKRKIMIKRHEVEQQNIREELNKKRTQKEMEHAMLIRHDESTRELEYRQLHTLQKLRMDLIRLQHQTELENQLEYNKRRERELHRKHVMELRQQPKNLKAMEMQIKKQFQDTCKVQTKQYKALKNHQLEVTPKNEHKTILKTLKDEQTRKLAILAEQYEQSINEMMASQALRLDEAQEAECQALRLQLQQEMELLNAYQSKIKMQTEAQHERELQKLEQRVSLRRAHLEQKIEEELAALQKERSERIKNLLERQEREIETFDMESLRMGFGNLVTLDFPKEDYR
Chain of UniProt Q13164 (whole entry, looked up): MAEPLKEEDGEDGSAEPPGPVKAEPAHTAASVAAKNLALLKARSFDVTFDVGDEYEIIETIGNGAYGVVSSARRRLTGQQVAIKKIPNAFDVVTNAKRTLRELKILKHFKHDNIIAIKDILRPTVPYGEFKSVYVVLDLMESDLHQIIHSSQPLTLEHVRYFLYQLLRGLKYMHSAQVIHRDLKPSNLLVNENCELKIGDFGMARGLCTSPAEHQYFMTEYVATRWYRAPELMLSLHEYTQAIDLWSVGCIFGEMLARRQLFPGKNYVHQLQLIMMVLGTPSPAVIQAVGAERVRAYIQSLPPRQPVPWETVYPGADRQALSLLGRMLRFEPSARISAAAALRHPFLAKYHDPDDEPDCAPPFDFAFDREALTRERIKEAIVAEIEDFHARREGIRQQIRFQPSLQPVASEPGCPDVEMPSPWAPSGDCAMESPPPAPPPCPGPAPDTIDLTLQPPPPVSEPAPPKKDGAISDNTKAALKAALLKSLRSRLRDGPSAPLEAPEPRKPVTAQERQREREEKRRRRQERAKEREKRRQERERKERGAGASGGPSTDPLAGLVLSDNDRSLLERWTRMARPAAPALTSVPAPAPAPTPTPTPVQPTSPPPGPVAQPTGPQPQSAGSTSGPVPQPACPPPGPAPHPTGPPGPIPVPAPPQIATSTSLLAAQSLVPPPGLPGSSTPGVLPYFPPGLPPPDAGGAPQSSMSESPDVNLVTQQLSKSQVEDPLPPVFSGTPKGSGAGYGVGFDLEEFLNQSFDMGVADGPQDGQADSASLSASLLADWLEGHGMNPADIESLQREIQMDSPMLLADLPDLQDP
Chain of UniProt Q9GZV3 (whole entry, looked up): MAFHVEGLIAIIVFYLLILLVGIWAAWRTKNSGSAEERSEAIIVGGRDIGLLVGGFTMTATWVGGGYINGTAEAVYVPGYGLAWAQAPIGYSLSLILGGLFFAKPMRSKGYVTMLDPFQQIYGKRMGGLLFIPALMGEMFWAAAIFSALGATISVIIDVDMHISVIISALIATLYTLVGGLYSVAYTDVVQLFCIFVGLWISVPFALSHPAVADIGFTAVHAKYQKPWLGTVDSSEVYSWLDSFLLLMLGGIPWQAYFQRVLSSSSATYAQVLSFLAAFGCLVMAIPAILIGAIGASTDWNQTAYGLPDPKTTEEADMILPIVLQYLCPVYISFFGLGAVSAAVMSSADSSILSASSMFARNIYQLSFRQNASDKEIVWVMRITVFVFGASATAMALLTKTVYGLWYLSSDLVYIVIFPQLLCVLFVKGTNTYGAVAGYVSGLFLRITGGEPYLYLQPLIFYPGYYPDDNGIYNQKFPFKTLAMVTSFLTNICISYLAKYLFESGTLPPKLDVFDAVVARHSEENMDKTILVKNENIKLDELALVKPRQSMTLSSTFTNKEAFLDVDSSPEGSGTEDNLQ
Chain of UniProt Q8TCG2 (whole entry, looked up): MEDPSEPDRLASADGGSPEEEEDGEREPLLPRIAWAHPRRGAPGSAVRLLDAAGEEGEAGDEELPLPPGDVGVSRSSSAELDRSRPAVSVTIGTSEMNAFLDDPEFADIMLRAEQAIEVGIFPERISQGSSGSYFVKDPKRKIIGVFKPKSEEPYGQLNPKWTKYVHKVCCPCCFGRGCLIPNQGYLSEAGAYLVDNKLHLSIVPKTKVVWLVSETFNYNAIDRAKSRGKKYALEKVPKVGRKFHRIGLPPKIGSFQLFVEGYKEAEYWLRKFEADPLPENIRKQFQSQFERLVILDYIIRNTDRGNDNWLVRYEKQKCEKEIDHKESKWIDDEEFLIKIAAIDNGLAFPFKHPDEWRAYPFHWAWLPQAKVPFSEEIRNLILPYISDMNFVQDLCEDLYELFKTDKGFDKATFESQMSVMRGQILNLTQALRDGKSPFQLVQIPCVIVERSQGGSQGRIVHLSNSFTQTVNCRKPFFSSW

Structure (SMILES) | tested on | test | system | setting | how to read | quantity | value
COc1ccccc1-c1n[nH]c2nc(NC3CCN(C(=O)Cc4ccc(F)cc4F)CC3)ncc12 | – | bead binding, competition bead pull-down, refers to: LINJ.29.1250 | Leishmania donovani axenic amastigote extract | 10 µM | relative to: vehicle | relative abundance | 0.92
O=C(CN1CN(c2ccccc2)C2(CCN(C(=O)c3cnc4[nH]ncc4c3)CC2)C1=O)NCC(F)(F)F | LATS2 (Homo sapiens, UniProt Q9NRM7) | inhibitor | – | concentration not given | – | inhibition | < 50%
C=CC(=O)Nc1cc(-c2nn(C3CCC(N4CCN(C(C)=O)CC4)CC3)c3ncnc(N)c23)ccc1Oc1ccccc1 (stereo not drawn) | MAPK7 (Homo sapiens, UniProt Q13164) | inhibitor, KiNativ profiling | biochemical | 2 µM | – | inhibition | 7.4%
CS(C)(=O)=Nc1ccc(-c2ccc(-c3nc4cc(O[C@@H]5CO[C@H]6[C@@H]5OC[C@H]6O)[nH]c4cc3F)cc2)cc1 | TAOK3 (Homo sapiens, UniProt Q9H2K8) | enzyme activity, inhibitor | – | 10 µM | – | inhibition | 21%
C[C@H](NCc1ccc(-c2ccc(C(F)(F)F)cc2)cc1)C(N)=O | NUAK2 (Homo sapiens, UniProt Q9H093) | cell-free assay, competition with immobilised ligand | – | 1 µM | – | inhibition | 0%
O=C1NC(=O)c2c1c1cc(F)c[n+]3c1c1c2c2cc(O)ccc2[n]1[Ru-4]312([N]=C=S)[S+]3CC[S+]1CC[S+]2CC3 (stereo not drawn) | Lyn (Mus musculus, UniProt P25911) | enzyme activity | – | 100 nM, mouse enzyme, with: 10 µM ATP | relative to: untreated | remaining activity | 7%
CN(/N=C/c1ccccc1C(=O)O)c1nc(-c2ccccc2Cl)cs1 | SRM | enzyme activity | – | 1 µM | – | inhibition | 8.74%
CN(C)[C@H]1C[C@@]23CC[C@@]4(O2)C(=CC[C@]2(C)[C@@H](c5ccc6ccncc6c5)CC[C@H]24)C=C3[C@@H](O)[C@@H]1O | PI4K2B (Homo sapiens, UniProt Q8TCG2) | ATP probe labelling, inhibitor, KiNativ profiling | – | 0.1 µM | – | inhibition | -3.4%
O=C1NC2(CC2)COc2ncc(F)cc2[C@H]2COCCN2c2ccn3ncc1c3n2 | – | – | Sprague-Dawley rat, male, testes | oral, 20 mg/kg/day, 4 weeks dosing, end of recovery | – | organ-to-brain weight ratio | 163 ± 18.8%
CC(C)[C@H]1NC(=O)C[C@H]2/C=C/CCSSC[C@@H](NC1=O)C(=O)N[C@H](Cc1cccc3ccccc13)C(=O)NCC(=O)O2 | STK4 (Homo sapiens, UniProt Q13043) | enzyme activity, inhibitor | – | 10 µM | – | inhibition | -7.7%
N[C@H](C(=O)N1CCCC1)C1CCN(c2nccc3c(-c4ncc(Cl)cc4Cl)cccc23)CC1 | SLC5A7 (Homo sapiens, UniProt Q9GZV3) | ligand displacement | – | 10 µM | – | inhibition | 58%
CC(C)(C)C(=O)OCOP(=O)(OCOC(=O)C(C)(C)C)C1CCCN(O)C1=O (stereo not drawn) | K562 | – | – | – | – | TGI | > 100 µM

Some of these lines once more:
Structure (SMILES) | tested on | test | system | setting | how to read | quantity | value
CC(C)[C@H]1NC(=O)C[C@H]2/C=C/CCSSC[C@@H](NC1=O)C(=O)N[C@H](Cc1cccc3ccccc13)C(=O)NCC(=O)O2 | STK4 (Homo sapiens, UniProt Q13043) | enzyme activity, inhibitor | – | 10 µM | – | inhibition | -7.7%
N[C@H](C(=O)N1CCCC1)C1CCN(c2nccc3c(-c4ncc(Cl)cc4Cl)cccc23)CC1 | SLC5A7 (Homo sapiens, UniProt Q9GZV3) | ligand displacement | – | 10 µM | – | inhibition | 58%
